Measurements gathered from unrelated publications.
WT1: WT1 323-438 (Homo sapiens, UniProt P19544)
Chain of UniProt P19544 (whole entry, looked up): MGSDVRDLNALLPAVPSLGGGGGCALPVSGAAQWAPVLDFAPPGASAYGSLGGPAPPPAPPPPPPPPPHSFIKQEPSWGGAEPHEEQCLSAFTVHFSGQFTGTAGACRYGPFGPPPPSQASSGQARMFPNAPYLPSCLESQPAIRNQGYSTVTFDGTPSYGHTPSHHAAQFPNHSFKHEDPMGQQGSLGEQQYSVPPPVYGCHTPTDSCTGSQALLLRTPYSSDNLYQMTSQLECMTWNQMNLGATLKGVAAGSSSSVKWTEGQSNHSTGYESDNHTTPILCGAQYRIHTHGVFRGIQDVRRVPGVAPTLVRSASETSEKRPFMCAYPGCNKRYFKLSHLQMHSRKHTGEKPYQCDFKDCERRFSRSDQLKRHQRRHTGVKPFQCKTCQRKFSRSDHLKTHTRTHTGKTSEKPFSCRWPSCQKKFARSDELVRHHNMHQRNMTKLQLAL
CP29A: CP29A 97-176 (Arabidopsis thaliana, UniProt Q43349)
Chain of UniProt Q43349 (whole entry, looked up): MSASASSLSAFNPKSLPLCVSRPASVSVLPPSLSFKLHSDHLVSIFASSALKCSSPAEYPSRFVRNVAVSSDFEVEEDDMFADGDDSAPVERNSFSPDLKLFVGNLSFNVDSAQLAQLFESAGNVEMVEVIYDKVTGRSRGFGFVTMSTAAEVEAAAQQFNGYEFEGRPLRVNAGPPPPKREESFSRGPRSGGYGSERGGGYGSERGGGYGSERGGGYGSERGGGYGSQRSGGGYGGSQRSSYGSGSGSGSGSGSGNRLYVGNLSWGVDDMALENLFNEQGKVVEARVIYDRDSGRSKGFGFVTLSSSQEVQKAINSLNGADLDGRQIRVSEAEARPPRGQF
Auxin response factor: Auxin response factor 1-610 (Capsicum annuum, UniProt A0A1U8F1G4)
WRKY18 full length assumed: WRKY18 full length assumed (Arabidopsis thaliana, UniProt Q9C5T4)
Chain of UniProt Q9C5T4 (whole entry, looked up): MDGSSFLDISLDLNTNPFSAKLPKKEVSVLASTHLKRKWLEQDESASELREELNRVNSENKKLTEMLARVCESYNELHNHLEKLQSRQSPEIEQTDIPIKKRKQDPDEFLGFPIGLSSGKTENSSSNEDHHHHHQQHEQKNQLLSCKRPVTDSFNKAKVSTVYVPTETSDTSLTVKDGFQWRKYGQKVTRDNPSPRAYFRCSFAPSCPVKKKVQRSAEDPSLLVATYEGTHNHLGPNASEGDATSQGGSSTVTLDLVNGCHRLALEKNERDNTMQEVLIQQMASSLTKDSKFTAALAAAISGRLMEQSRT
SART3: SART3 697-786 (Homo sapiens, UniProt Q15020)
Chain of UniProt Q5NB82 (whole entry, looked up): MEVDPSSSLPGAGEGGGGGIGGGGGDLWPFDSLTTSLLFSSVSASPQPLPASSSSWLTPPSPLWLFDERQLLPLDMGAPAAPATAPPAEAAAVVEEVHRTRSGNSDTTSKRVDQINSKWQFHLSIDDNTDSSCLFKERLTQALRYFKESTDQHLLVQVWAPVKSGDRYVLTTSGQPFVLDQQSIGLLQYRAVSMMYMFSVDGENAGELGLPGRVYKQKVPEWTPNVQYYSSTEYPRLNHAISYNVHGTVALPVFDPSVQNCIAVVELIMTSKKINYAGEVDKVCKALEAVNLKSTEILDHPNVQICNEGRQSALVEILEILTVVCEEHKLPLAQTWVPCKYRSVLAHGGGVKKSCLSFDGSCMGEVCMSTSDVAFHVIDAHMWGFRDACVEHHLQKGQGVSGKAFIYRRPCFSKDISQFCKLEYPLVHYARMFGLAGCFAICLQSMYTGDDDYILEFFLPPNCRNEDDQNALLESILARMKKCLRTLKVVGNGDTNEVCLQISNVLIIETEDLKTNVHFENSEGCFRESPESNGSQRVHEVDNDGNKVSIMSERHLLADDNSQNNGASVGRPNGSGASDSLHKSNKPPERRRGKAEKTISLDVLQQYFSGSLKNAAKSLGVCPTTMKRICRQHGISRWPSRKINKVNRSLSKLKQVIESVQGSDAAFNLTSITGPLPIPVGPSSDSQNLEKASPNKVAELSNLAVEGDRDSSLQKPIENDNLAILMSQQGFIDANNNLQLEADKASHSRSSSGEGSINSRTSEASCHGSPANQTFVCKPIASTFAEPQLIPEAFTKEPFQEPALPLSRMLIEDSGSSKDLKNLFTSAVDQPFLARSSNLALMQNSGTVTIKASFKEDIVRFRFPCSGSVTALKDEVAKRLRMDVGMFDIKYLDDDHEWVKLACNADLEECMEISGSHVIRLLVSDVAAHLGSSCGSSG
Chain of UniProt Q15020 (whole entry, looked up): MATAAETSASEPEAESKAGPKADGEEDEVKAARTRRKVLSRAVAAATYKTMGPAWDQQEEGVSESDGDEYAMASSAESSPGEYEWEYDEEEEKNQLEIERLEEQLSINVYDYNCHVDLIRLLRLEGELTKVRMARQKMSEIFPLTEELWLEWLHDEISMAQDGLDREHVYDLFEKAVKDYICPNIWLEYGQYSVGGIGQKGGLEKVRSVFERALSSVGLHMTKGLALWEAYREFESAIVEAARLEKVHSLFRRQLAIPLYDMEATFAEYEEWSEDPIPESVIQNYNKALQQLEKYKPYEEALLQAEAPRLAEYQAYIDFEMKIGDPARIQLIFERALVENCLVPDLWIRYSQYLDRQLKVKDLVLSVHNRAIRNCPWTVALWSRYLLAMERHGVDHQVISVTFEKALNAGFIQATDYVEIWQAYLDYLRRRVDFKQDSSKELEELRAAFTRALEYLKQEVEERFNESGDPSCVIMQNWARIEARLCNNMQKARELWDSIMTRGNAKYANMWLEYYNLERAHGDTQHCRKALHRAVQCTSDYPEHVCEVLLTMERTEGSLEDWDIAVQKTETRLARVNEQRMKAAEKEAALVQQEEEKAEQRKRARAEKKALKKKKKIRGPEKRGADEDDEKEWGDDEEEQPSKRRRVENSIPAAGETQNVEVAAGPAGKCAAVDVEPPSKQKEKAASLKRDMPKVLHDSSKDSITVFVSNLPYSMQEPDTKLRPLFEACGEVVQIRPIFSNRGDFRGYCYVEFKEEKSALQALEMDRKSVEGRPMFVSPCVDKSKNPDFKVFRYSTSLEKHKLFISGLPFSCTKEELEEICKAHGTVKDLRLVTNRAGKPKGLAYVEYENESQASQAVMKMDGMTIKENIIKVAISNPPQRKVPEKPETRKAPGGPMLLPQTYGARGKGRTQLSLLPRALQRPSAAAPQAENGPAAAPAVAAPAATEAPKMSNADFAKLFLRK
Chain of UniProt Q9SKD9 (whole entry, looked up): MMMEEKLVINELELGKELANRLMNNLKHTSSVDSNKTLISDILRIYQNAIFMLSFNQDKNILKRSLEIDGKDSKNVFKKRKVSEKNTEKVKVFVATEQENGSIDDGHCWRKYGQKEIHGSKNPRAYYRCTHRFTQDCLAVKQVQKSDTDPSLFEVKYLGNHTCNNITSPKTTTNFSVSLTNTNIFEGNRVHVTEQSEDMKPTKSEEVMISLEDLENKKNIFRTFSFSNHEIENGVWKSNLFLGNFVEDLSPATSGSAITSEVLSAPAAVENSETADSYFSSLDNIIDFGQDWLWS
Chain of UniProt P09104 (whole entry, looked up): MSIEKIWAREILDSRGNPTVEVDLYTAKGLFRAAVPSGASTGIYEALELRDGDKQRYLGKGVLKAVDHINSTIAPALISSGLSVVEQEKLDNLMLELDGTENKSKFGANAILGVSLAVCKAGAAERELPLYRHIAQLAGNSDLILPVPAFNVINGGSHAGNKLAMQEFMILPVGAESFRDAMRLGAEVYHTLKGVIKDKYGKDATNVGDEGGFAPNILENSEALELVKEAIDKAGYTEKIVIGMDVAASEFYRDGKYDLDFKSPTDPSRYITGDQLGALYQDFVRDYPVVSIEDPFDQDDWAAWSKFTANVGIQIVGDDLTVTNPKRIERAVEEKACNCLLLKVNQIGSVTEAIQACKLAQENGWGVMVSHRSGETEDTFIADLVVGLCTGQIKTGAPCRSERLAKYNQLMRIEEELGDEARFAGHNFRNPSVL
Chain of UniProt Q7EZT1 (whole entry, looked up): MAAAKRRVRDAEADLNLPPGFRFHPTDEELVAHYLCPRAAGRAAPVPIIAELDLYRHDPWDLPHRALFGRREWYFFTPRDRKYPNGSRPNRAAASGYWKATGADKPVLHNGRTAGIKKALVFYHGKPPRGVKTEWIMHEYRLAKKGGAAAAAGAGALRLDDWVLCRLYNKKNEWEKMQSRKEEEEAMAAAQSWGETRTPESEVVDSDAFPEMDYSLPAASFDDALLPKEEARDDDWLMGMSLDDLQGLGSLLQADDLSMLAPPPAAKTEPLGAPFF
Chain of UniProt Q9Y6M1 (whole entry, looked up): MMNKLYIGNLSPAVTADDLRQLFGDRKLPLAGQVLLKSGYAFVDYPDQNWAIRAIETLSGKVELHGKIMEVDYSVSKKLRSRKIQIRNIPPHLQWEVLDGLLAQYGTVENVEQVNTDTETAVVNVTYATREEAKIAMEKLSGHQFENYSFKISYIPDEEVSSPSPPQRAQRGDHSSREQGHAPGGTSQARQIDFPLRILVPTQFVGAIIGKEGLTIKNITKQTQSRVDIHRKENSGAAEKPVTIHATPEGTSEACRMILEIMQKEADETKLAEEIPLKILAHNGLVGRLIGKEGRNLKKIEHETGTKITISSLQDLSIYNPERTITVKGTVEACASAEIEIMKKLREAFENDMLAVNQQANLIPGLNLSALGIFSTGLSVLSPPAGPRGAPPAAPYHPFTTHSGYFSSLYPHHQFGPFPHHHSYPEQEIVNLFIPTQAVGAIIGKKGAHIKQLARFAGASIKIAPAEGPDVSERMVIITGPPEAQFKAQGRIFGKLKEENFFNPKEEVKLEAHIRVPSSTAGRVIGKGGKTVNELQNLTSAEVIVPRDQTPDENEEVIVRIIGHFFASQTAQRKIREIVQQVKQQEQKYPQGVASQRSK
Chain of UniProt Q10MB4 (whole entry, looked up): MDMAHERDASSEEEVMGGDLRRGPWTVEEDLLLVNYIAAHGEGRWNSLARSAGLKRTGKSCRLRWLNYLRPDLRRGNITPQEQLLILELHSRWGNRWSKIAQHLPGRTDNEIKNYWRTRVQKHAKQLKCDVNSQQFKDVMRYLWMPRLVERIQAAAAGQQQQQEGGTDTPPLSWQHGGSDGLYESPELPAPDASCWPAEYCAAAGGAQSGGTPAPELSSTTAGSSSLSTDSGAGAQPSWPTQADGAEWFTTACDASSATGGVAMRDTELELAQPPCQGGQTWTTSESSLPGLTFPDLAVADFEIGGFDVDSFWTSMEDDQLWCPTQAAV

| Sequence | target | test | system | setting | binding |
| --- | --- | --- | --- | --- | --- |
| GACGATGTTGACTGGCTTCC (dsDNA (Saccharum)) | WRKY2 full length assumed (Saccharum hybrid, UniProt A0A5J6RV71) | EMSA | double-stranded DNA, one strand shown | – | binds |
| ACCAAGCGGGATGCGTAGCCGCCGCCGCCGCCG (dsDNA; blunt) | WT1 | EMSA | double-stranded DNA, one strand shown | – | no binding |
| UCAUCCCAGCUGGUGUAAUAAUGAAUUGUUUAAAAAACAGCUCAUAAUUGAUGCCAAAUUAAAGCAC (ssRNA; single strand) | IGF2BP2 1-599 (Homo sapiens, UniProt Q9Y6M1) | mass photometry | RNA | – | binds |
| GGTTAGGGTTAG (ssDNA; 5'-phosphate) | Pot1b 1-300 (Mus musculus, UniProt H7BX60) | EMSA | single-stranded DNA | – | binds |
| TCGGTACCCGTGGATC (dsDNA) | protein full length assumed K369A (Bacillus pumilus, UniProt A3FMN7) | EMSA | double-stranded DNA, one strand shown | – | binds |
| GGCCATCATCAATGAAGATCCCACCAAGGGACAAAA (dsDNA) | GATA15 full length assumed (Oryza sativa, UniProt Q6L5E5) | EMSA | double-stranded DNA, one strand shown | – | binds |
| GAGCTGCAAGTGGATATTTGGACCTCTTTGAGGTCTTCGTTGGAAACGGGATTTCCTCATATAATGTTACACAGAAGAATTCTCAGTAACTTATTTGTGGTGTGTGTATTCAACTCACAGAGGTGAACCTTCCTTCAGAAAGAGCAGATTTGAAACACTCTTTTTGTACCC (dsDNA) | CENP-I/CENP-H/CENP-K 57-281 / 1-247 / 1-269 (Homo sapiens) | EMSA | double-stranded DNA, one strand shown | – | binds |
| TTATGGGCGTGGGCCCTACGCGTGTGCGCACGAGGAGGTGAGGTGA (dsDNA) | Protein BZR1 homolog 1-304 (Oryza sativa, UniProt A0A0P0UYT3) | EMSA | double-stranded DNA, one strand shown | – | no binding |
| GGGTTGCGGCCGCTTGGG (dsDNA) | PARP1 del BRCT domain (Homo sapiens, UniProt P09874) | stopped-flow fluorescence anisotropy | double-stranded DNA, one strand shown | – | binds |
| CATCTCTTACTTTCTATAGGTGTCATAC (dsDNA) | NLP3 full length assumed (Oryza sativa, UniProt Q5NB82) | EMSA | double-stranded DNA, one strand shown | – | binds |
| GATTCACGATTATTTATATGAAAATATAATAAATATTGAATTTCCTTTGCTATTT (dsDNA) | hb-1 full length assumed (Solanum lycopersicum, UniProt B6GVA3) | EMSA | double-stranded DNA, one strand shown | – | binds |
| CAGCTGCTTCGGGAGTTGTTGGTTGAGGTTCCCAAGGCCA (dsDNA) | Transcription factor 1-552 (Triticum aestivum, UniProt G9DR80) | EMSA | double-stranded DNA, one strand shown | – | binds |
| GACTGACTGATAGATCCTAAGTACTGATTACTGACTATAGATCTAAGTCATGATCAGTTA (dsDNA) | DAXX full length assumed (Homo sapiens, UniProt Q9UER7) | EMSA | double-stranded DNA, one strand shown | 50-500 nM DAXX, 50 nM probe | no binding |
| TTTTTT (ssDNA) | CP29A | NMR titration | single-stranded DNA | – | binds |
| CAGCTGAAGCCATTCCAGTCAACGCTTGCATTTACATTTTTT (dsDNA) | WRKY domain-containing protein 1-700 (Vitis vinifera, UniProt A0ABY9BSD8) | EMSA | double-stranded DNA, one strand shown | – | binds |
| AGTACAAGAGTACAGCTGAAAGCCATAGTACAC (dsDNA; blunt) | SPL9 full length assumed (Oryza sativa, UniProt Q6I576) | EMSA | double-stranded DNA, one strand shown | – | binds |
| CGGGAACUCGCGUAGACACGCCCG (structured RNA) | NFKB1 41-249 (Homo sapiens, UniProt P19838) | NMR | folded RNA | NaCl 50 mM | binds |
| AAACAAATCTCAAAATGAAGGCAAAG (dsDNA) | NAC083 (Arabidopsis thaliana, UniProt Q9FY93) | EMSA | double-stranded DNA, one strand shown | – | binds |
| GGAATTGGTCAGTGCTAATCCTTGGTCAGTGCAGCTA (dsDNA (Caenorhabditis elegans); blunt) | him-8 full length assumed (Caenorhabditis elegans, UniProt O18068) | streptavidin pull-down, western blot | double-stranded DNA, one strand shown | 1 µM | binds |
| DNA 1 ACGCTCCGTCGAGGAATTCGGATCCGAATTCCTCGAC / DNA 2 ACGCTCCGTCGAGGAATTCGGATCCGAATTCCTCGAC (dsDNA; 5' 7-nt overhangs, palindromic) | sduA 1-380 (Bacillus cereus, UniProt B7HFR2) | fluorescence polarization | double-stranded DNA | together with: Mg2+ 5 mM | no binding |
| AGACTTTCTGTCATTGGA (dsDNA) | Auxin response factor | MST | double-stranded DNA, one strand shown | – | binds |
| CCTGCGGTATTGACACTTGAGGGGCGCGACTACTGACAGATGAGGGGCGCGATCCTTGACACTTGAGGGGCAGAGTGATGACAGATGAGGGGCGCACCTATTGACATTTGAGGGGCTGTCCACAGGCAG (dsDNA) | trfA 98-382 R156E/G254D/S267L (Escherichia coli, UniProt P07676) | SPR | double-stranded DNA, one strand shown | – | binds |
| AGACTTTCCCCCATTGGA (dsDNA) | Auxin response factor | EMSA | double-stranded DNA, one strand shown | – | no binding |
| ACCAAGCTGGATGCGGAGCCGCCGCCGCCGCCG (dsDNA; blunt) | WT1 | EMSA | double-stranded DNA, one strand shown | – | no binding |

| Sequence | target | test | system | setting | binding |
| --- | --- | --- | --- | --- | --- |
| DNA 1 ATACCAGCTTATTCAATT / DNA 2 ATTGCTCCTCAGCAATTGAATAAGCT (dsDNA; 13 bp duplex, 5' overhangs, 5'-NH2) | ENO2 2-434 (Homo sapiens, UniProt P09104) | magnetic bead strand displacement | double-stranded DNA | – | no binding |
| GTTACT (ssDNA) | CP29A | NMR titration | single-stranded DNA | – | binds |
| GACAAAAGATGTTGACCTTCACGCCTCTCTTCTTAGACCCCACGCGCCACACTCTCACGGTGAGAACATAAATATCAATCTCTCTTTTACCGCCTCCTACCCATTTATCTCTCTCTTTCTCAAAACCTTTCAGTCAAAATTCTCC (dsDNA) | WRKY18 full length assumed | EMSA | double-stranded DNA, one strand shown | – | binds |
| CAATCCTATTGCTTCTATACTTGACACCAATTTTCATACTGATAGATT (dsDNA) | WRKY23 (Oryza sativa, UniProt Q7E0X1) | EMSA | double-stranded DNA, one strand shown | – | binds |
| TTTTTTTTTTTTTTTTTTTT (ssDNA) | priA 211-732 (Escherichia coli, UniProt P17888) | UV photo-cross-linking | single-stranded DNA | no nucleotide, tryptic fragment | binds |
| TTTTTTTTTTTTTTTTTTTTTTTTTTTTTTTTTTTTTTTTTTTTTTTTTTTTTTTTTTTTTTTTT (ssDNA) | dinG full length assumed (Escherichia coli, UniProt P27296) | EMSA | single-stranded DNA | together with: ATPγS | binds |
| TTGGGCGAGCCGACCTGGGTGTGGGGGAATTGATTG (dsDNA) | NAC067 1-276 (Oryza sativa, UniProt Q7EZT1) | competition | double-stranded DNA, one strand shown | – | no binding |
| TCACCGGTTGCCTGAACCCTTGGGACCCCTCCAAAAGCTTAATTACCC (dsDNA) | NLP3 1-938 (Oryza sativa, UniProt Q5NB82) | EMSA | double-stranded DNA, one strand shown | – | binds |
| GTCTTCAGCTCGGACTTCGGAAGAATAAACAGGCGTAGAAGTGATAACGTTCTTAATACGAAAATTAAGCTCTGTCTCCGTTTCGTGCTACGGTTAGAAAGGCGAAAGCCCCAAGAAATACAAGCACACCTGATAAGCGAGATTTAAGGATAACAGCGAAATTCAATAGGGTCTGAATTTCCAAACTAGGTTAAATGCCACGACGTTTTATTGTTG (dsDNA) | ihfA/ihfB 1-98; 1-95 (Aggregatibacter actinomycetemcomitans) | EMSA | double-stranded DNA, one strand shown | – | binds |
| GGGCCGTCCAGAAGCTTCCAGAACCTTCTTCTCCTCCT (dsDNA) | HSFA4D full length assumed (Oryza sativa, UniProt Q93VB5) | EMSA | double-stranded DNA, one strand shown | – | binds |
| ACAAAAGTTTATAAATGACTCGGTGTTTGACATAACTCGGGGTTGTTTTTCTTTGTTAATTCACACACGGGGTTGGTGTATAAATGACTTCGGTGTTTGAAATGT (dsDNA) | WRKY46 1-295 (Arabidopsis thaliana, UniProt Q9SKD9) | EMSA | double-stranded DNA, one strand shown | – | binds |
| AGAAG (ssRNA) | SART3 | ITC | RNA | – | no binding |
| CTGTTTTATTCACTTGATCTTCTTAATCTTTTAAATTGCCTATCTTTTGCTATGTTTTTGTTACAATTTAAATTGACAAGTACTTAGAAAAACAAACAAAAATGATATCTCTGTTCCATCTTAGATTATTCGTTTCTTATTTCTCTTAATATATATTTTTGAACACGCTTATTTCTCTTATATATGTTGCAATATTC (dsDNA) | WRKY18 full length assumed | EMSA | double-stranded DNA, one strand shown | – | binds |
| ACCAAGCGGGATGCGGAGCCGCCGCCGCCGTCG (dsDNA; blunt) | WT1 | EMSA | double-stranded DNA, one strand shown | – | no binding |
| GATTTTGTCTTGATACTTAAACTTTGGAA (dsDNA) | Uncharacterized protein 1-360 (Prunus persica, UniProt M5W9R3) | EMSA | double-stranded DNA, one strand shown | – | binds |
| CTCGTCGTGCGCCAACTGCGAGCGAGGGAG (dsDNA) | MYB2 full length assumed (Oryza sativa, UniProt Q10MB4) | EMSA | double-stranded DNA, one strand shown | – | binds |
| AUACA (ssRNA) | SART3 | ITC | RNA | – | no binding |
| TAAGAGAATATTGGGAAATTGTCTACCCAGATGAACATCCCTCCCAAAATTGCGTAA (dsDNA) | EIN3 1-628 (Arabidopsis thaliana, UniProt O24606) | EMSA | double-stranded DNA, one strand shown | – | no binding |
| AGCGTAGCACTGGGCT (dsDNA) | protein full length assumed (Bacillus pumilus, UniProt A3FMN7) | EMSA | double-stranded DNA, one strand shown | – | no binding |
| AAAATAATTTTACTTTTTAAGTTTGTTAG (dsDNA) | NAC2 1-315 (Actinidia chinensis, UniProt A0A075EAR8) | EMSA | double-stranded DNA, one strand shown | – | binds |
| AACUACAGGACUAUUUGACAUCAUAAUAAA (ssRNA) | IGF2BP1 1-577 (Homo sapiens, UniProt Q9NZI8) | pull-down | RNA | – | binds |
| CGTTTGTCGCTGTCACGATGTGGACCGTTCTTCTTTATTTTCACGTGGACCGACTTAATTACCTTCTTTCATTCTTGTTATTTCAATATTTTTTACGTCATTTAAACTCCACTTTACCAAAATAATTTATTTCATTCTTTGAGAGCATCAATTATCAAATAATTCAATTGTCTTTTTTCGTGATAGTTGAATAAGGGAC (dsDNA) | WRKY18 full length assumed | EMSA | double-stranded DNA, one strand shown | – | binds |
| AGCAGCACAGAGGTCAGATGCAAACCACAGCCTGAGTGGTTAGCGTATGTCATTTACGGACCTATGCGTGCTACCGTGAA (ssDNA; 5' amino C6) | NPY fragment (Homo sapiens) | electrochemical impedance spectroscopy | single-stranded DNA | 10-1000 ng/mL, aptamer electrode | binds |

For quick reference, copied from above:
| Sequence | target | test | system | setting | binding |
| --- | --- | --- | --- | --- | --- |
| TTATGGGCGTGGGCCCTACGCGTGTGCGCACGAGGAGGTGAGGTGA (dsDNA) | Protein BZR1 homolog 1-304 (Oryza sativa, UniProt A0A0P0UYT3) | EMSA | double-stranded DNA, one strand shown | – | no binding |
| CTGTTTTATTCACTTGATCTTCTTAATCTTTTAAATTGCCTATCTTTTGCTATGTTTTTGTTACAATTTAAATTGACAAGTACTTAGAAAAACAAACAAAAATGATATCTCTGTTCCATCTTAGATTATTCGTTTCTTATTTCTCTTAATATATATTTTTGAACACGCTTATTTCTCTTATATATGTTGCAATATTC (dsDNA) | WRKY18 full length assumed | EMSA | double-stranded DNA, one strand shown | – | binds |
| AAACAAATCTCAAAATGAAGGCAAAG (dsDNA) | NAC083 (Arabidopsis thaliana, UniProt Q9FY93) | EMSA | double-stranded DNA, one strand shown | – | binds |
| ACCAAGCTGGATGCGGAGCCGCCGCCGCCGCCG (dsDNA; blunt) | WT1 | EMSA | double-stranded DNA, one strand shown | – | no binding |
| AACUACAGGACUAUUUGACAUCAUAAUAAA (ssRNA) | IGF2BP1 1-577 (Homo sapiens, UniProt Q9NZI8) | pull-down | RNA | – | binds |
| TAAGAGAATATTGGGAAATTGTCTACCCAGATGAACATCCCTCCCAAAATTGCGTAA (dsDNA) | EIN3 1-628 (Arabidopsis thaliana, UniProt O24606) | EMSA | double-stranded DNA, one strand shown | – | no binding |
| GATTTTGTCTTGATACTTAAACTTTGGAA (dsDNA) | Uncharacterized protein 1-360 (Prunus persica, UniProt M5W9R3) | EMSA | double-stranded DNA, one strand shown | – | binds |
